Results of several laboratories.
Every numbered part comes from another study and shows a few of its results, in no order.

Series 1
Target: Interferon regulatory factor 5, full length, phosphomimetic (IRF5, Homo sapiens, UniProt Q13568-2, residues 1-514, K96S/S451D/S453D/S456D/S462D)
Technique: protein-binding microarray
Molecule type: double-stranded DNA, one strand shown
Sample: in vitro
Tested at: 250 nM
Setting: 60-bp whole probe
Added: salmon DNA 0.4 mg/ml
Reference: random background probes
Direction: higher = stronger binding
Sequence	log fluorescence
GCCTAGCACTCATGTTTCCTTGTACGACTGTGCTAGGTCTTGATTCGCTTGACGCTGCTG	0.797 z-score
GCCTAGCACTCAACTCCCCAACTCGCACTGTGCTAGGTCTTGATTCGCTTGACGCTGCTG	-0.403 z-score
GCCTAGCACTCTTTTTGCTTTCTTTATGCGTGCTAGGTCTTGATTCGCTTGACGCTGCTG	2.84 z-score

Series 2
Target: Prothrombin, mature alpha-thrombin (F2, Homo sapiens, UniProt P00734)
Technique: aptamer microarray, sandwich
Molecule type: DNA with 2'F-ANA
Sample: in vitro
Tested at: 200 nM
Setting: whole 15-mer aptamer, many near background
Added: Cy3 exosite-II aptamer, 400 nM
Direction: higher = stronger binding
Sequence	mean fluorescence intensity
GGTTGGTGTGGTTGG (2'F-ANA at 2 3 4 5 7 12 14 15)	53.7 a.u.
GGTTGGTGTGGTTGG (2'F-ANA at 1 2 4 6 7 8 13 14 15)	53.8 a.u.
GGTTGGTGTGGTTGG (2'F-ANA at 2 3 5 6 9 10 12 13)	52.4 a.u.

Series 3
Target: Histone acetyltransferase KAT6A, winged helix 1, GST fusion (KAT6A, Homo sapiens, UniProt Q92794, residues 1-85)
Technique: protein binding microarray
Molecule type: double-stranded DNA, one strand shown
Sample: in vitro
Tested at: not given
Setting: 8-mer, flanks averaged, mean of 2 arrays, mostly near background
Reference: not given
Direction: higher = stronger binding
Construct (chain): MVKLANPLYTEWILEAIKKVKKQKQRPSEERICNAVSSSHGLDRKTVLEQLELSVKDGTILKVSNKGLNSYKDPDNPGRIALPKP
Sequence	E-score
AAAGCTAC	0.0818
GCATCCCA	-0.1
CTTCCATC	-0.206
GGTGGTAC	-0.0557
CTTACGGA	0.0318

Single results of other studies
Substance	target	test	test system	setting	scale	measurement	result
PhoQ, residues 284 288 289 292 302 303 NLMGRA	PhoP, residues 12 14 15 18 19 SFCSL (Escherichia coli, UniProt P23836)	Sort-seq, item: YFP reporter	E. coli	PhoQ-PhoP variant library, added: 10 µM Mg2+	reference: high Mg2+ state, higher = stronger signaling	fold induction	22.4
